Experimental data of several laboratories.
Lines come from different studies, so protocols differ. “And” joins repeats or separate records; there may be more than shown. ± gives the spread as reported.
Sequence of UniProt Q05655 (whole entry, looked up): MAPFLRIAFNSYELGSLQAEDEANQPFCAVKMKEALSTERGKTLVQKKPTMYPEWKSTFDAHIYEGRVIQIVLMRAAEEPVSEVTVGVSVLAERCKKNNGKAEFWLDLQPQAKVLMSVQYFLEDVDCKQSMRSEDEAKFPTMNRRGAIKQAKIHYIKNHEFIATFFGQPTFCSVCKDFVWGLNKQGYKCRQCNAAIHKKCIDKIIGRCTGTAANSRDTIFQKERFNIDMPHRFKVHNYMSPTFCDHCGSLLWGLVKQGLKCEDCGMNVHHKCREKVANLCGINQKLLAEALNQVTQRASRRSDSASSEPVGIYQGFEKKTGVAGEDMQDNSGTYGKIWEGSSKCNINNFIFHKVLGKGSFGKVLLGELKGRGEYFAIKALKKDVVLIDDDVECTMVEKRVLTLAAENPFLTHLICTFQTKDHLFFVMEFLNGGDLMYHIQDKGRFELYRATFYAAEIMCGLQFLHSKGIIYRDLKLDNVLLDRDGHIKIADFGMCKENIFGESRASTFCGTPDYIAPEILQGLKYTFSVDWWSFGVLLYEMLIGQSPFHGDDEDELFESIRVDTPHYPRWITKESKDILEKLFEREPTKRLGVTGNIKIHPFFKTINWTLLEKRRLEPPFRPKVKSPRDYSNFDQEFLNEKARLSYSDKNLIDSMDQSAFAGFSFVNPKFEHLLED

Compound	tested on	test	system	conditions	scale	endpoint	value
C[C@@H]1OC(=O)NN=C1c1ccc(-c2ccc(F)cc2)c(C(F)(F)F)c1	–	phase I trial, measured: Fatigue worst grade 1	human patients	dose not given, all dose groups	–	patients with adverse event	60%
O=C1Nc2cc3[nH]nc(-c4ccncc4)c3cc2CN1Cc1ccccc1	–	CTCAE v4.03	advanced solid tumour patients	intravenous, 9.6 mg/kg, schedules 1/2	–	patients with headache	0%
C=CCNc1c(O)cc2c(O)c1C[C@@H](C)C[C@H](OC)[C@H](O)[C@@H](C)/C=C(\C)[C@H](OC(N)=O)[C@@H](OC)/C=C\C=C(/C)C(=O)N2	–	–	unresectable or metastatic sarcoma	intravenous, 400 mg/m^2, grade 3-4 lab change	–	patients with ALT increase	9%
CCC[C@@](N)(CO)CCc1ccc(OCCCCCC(C)C)cc1	–	–	hound dogs, male	intravenous, 0.25 mg/kg, geometric mean	–	volume of distribution (Vz)	31.2 L/kg
CC(C)[C@@H]1NC(=O)CNC(=O)[C@H](CC(N)=O)NC(=O)[C@H](CCCNC(=N)N)NC(=O)[C@H](Cc2ccc(O)cc2)NC(=O)[C@H](C(C)C)NC(=O)[C@@H](NC(=O)[C@@H](NC(=O)[C@H](CC(N)=O)NC(=O)[C@H](Cc2c[nH]c3ccccc23)NC(=O)[C@H](C)NC(=O)[C@H](Cc2ccccc2)NC(=O)CN)C(C)C)CSSC[C@@H](C(=O)N[C@@H](Cc2cnc[nH]2)C(=O)N[C@@H](CCCNC(=N)N)C(=O)N[C@@H](CCCNC(=N)N)C(=O)N[C@@H](C)C(=O)N[C@@H](CC(N)=O)C(N)=O)NC(=O)[C@H](C(C)C)NC(=O)[C@H](CCCNC(=N)N)NC1=O	–	–	ICR mice, serum	intraperitoneal, 10 mg/kg, day 5	–	albumin	32.7 ± 1.09 g/L
CN[C@H](CC(C)C)C(=O)N[C@H]1C(=O)N[C@@H](CC(N)=O)C(=O)N[C@H]2C(=O)N[C@H]3C(=O)N[C@H](C(=O)N[C@H](C(=O)O)c4cc(O)cc(O)c4-c4cc3ccc4O)[C@H](O)c3ccc(c(Cl)c3)Oc3cc2cc(c3O[C@@H]2O[C@H](CO)[C@@H](O)[C@H](O)[C@H]2O[C@H]2C[C@](C)(N)[C@H](O)[C@H](C)O2)Oc2ccc(cc2Cl)[C@H]1O	–	population PK model	human neonates	–	–	clearance, bootstrap median	0.095 L/h
COc1ccc([C@@H](O)c2cc(-c3ncnc4cc(N5CCOCC5)ccc34)c(F)cc2Cl)nn1	–	–	patients, advanced solid tumours	oral, 200 mg twice daily, treatment-emergent, with: avelumab	–	stomatitis incidence	10%
Cc1cn(-c2ccc3c(c2)CN(c2ncc(Cc4ccc(-n5cccn5)cc4)s2)CC3)c(C)n1	–	–	cell culture medium	14 days	–	precipitation concentration	> 10 µM
CC1(C)[C@H](C(=O)OCc2cccc(Oc3ccccc3)c2)[C@@H]1C=C(Cl)Cl	–	measured: CYP2C9	human, age 6 months, recombinant human CYP2C9	0.1 µM	–	enzyme contribution to clearance	2.32%
CC[C@H](C)[C@H](NC(=O)[C@H](Cc1ccccc1)NC(=O)[C@H](CCC(=O)O)NC(=O)[C@H](CCCNC(=N)N)NC(=O)[C@H](C)NC(=O)[C@H](C)NC(=O)[C@H](CCC(N)=O)NC(=O)[C@H](CCC(=O)O)NC(=O)[C@H](CCC(=O)O)NC(=O)[C@H](CC(C)C)NC(=O)[C@H](Cc1ccc(O)cc1)NC(=O)[C@H](CO)NC(=O)[C@H](CO)NC(=O)[C@@H](NC(=O)[C@H](CC(=O)O)NC(=O)[C@H](CO)NC(=O)[C@@H](NC(=O)[C@H](Cc1ccccc1)NC(=O)[C@@H](NC(=O)CNC(=O)[C@H](CCC(=O)O)NC(=O)[C@H](C)NC(=O)CCc1cnc[nH]1)[C@@H](C)O)[C@@H](C)O)C(C)C)C(=O)N[C@@H](C)C(=O)N[C@@H](Cc1c[nH]c2ccccc12)C(=O)N[C@@H](CC(C)C)C(=O)N[C@H](C(=O)N[C@@H](CCCNC(=N)N)C(=O)NCC(=O)N[C@@H](CCCNC(=N)N)C(=O)N[C@@H](CCCCNC(=O)COCCOCCNC(=O)COCCOCCNC(=O)CC[C@H](NC(=O)CCCCCCCCCCCCCCCCC(=O)O)C(=O)O)C(=O)NCC(=O)NCC(=O)N[C@@H](CO)C(=O)N[C@@H](CCSC)C(=O)N[C@H](C(=O)N[C@@H](CCCCNc1c(NCCCCCN(O)C(=O)CCC(=O)NCCCCCN(O)C(=O)CCC(=O)NCCCCCN(O)C(C)=O)c(=O)c1=O)C(=O)O)C(C)C)C(C)C [zirconium-89 labelled]	–	ex vivo gamma counting	male Sprague-Dawley rats, duodenum	intravenous, 5 MBq (1 nmol), 24 h	–	tissue uptake	0.152 %ID/g and 0.156 %ID/g and 0.14 %ID/g
COc1ncccc1-c1cnn2ccc(N3CCN(C(=O)OC(C)C)CC3)nc12	–	–	mouse formalin model, plasma	oral, 30 mg/kg, 60 min	–	free concentration	280 nM
CCN1[C@@H](C(=O)NC23CCC(C(=O)O)(CC2)CC3)[C@H](c2cccc(Cl)c2F)[C@]2(C(=O)Nc3cc(Cl)ccc32)C12CCCCC2	–	–	patients with advanced solid tumours	oral, 200 mg	–	Tinnitus incidence	0%
CC(C)C[C@H](NC(=O)[C@H](CCCCN)NC(=O)OCC1c2ccccc2-c2ccccc21)C(=O)N[C@H](C(=O)N[C@@H](Cc1ccccc1)C(=O)N[C@@H](Cc1ccccc1)C(=O)N[C@@H](CCCCN)C(=O)NCC(=O)N[C@@H](Cc1ccccc1)C(=O)N[C@@H](C)C(=O)N[C@@H](Cc1c[nH]c2ccccc12)C(=O)N[C@@H](CC(N)=O)C(=O)N[C@H](C(=O)N[C@H]1CSSC[C@@H](C(=O)N[C@@H](Cc2c[nH]cn2)C(=O)N[C@@H](CCCNC(=N)N)C(=O)N[C@@H](CCCNC(=N)N)C(=O)N[C@@H](C)C(=O)N[C@@H](CC(N)=O)C(N)=O)NC(=O)[C@H](C(C)C)NC(=O)[C@H](CCCNC(=N)N)NC(=O)[C@H](C(C)C)NC(=O)CNC(=O)[C@H](CC(N)=O)NC(=O)[C@H](CCCNC(=N)N)NC(=O)[C@H](Cc2ccc(O)cc2)NC(=O)[C@H](C(C)C)NC1=O)C(C)C)C(C)C	–	HPLC	mouse mammary gland homogenate	2560 µM, 6.00 h, 37 °C, 50 mg/mL tissue	–	remaining peptide	79.5% and 82.4%
COc1cc2c(Oc3ccc4[nH]c(C)cc4c3F)ccnc2cc1OCC1(N)CC1	–	–	paediatric refractory sarcoma patients	8 mg	–	grade 3 T-wave abnormality	0%
CC(C)N(CCc1c[nH]c2cccc(OC(=O)CCCC(=O)O)c12)C(C)C.Cl	–	–	male beagle dog, plasma	subcutaneous, 1 mg/kg	–	Cmax	344 ng/mL
CN1CCCC2(C1)CN(Cc1cccnc1)c1ccc(C(=O)NCC3CCCCC3)cc12 (centres unmarked)	Vero-E6	CellTiter-Glo ATP	–	72 h, second round 5-point	relative to: DMSO 0%, hyamine -100%, more negative, more toxic	maximum response	10.6%
COc1ccc(-c2c(-c3ccc(C#N)c(F)c3)nc(N3CCC(N)CC3)n(C)c2=O)cc1F	–	measured: Diarrhea	neuroendocrine neoplasm patients	oral, 60 mg, any grade, dose expansion	–	treatment-related adverse event incidence	19%
O=c1ccc2ncc(=O)n3c2n1C[C@H]3CN1CCC(NCc2cc3c(cn2)OCCC3)CC1	–	measured: respiratory thoracic mediastinal disorders	healthy human participants	oral, 1500 mg, with: rifampicin 600 mg	–	adverse event incidence	6%
CCCCCCCCCCCCOS(=O)(=O)O.O=C(NCCCNc1nc(Nc2cccc(NC(=O)N3CCCC3)c2)ncc1I)c1cccs1	–	thermogravimetric analysis	–	nitrogen 10 °C/min	–	degradation onset temperature	~185 °C
CC(C)n1c(C2CCNCC2)nc2c([N+](=O)[O-])c(Br)c(Br)cc21	–	–	patients with AML	125 mg, accidental overdose	–	AE leading to interruption	2%
C[C@H]1CN(c2n[nH]c3nc(N[C@H]4CC[C@H](NS(=O)(=O)CCC(F)(F)F)CC4)ncc23)CCO1	Protein kinase C delta type (PRKCD, Homo sapiens, UniProt Q05655)	inhibitor, Kinobeads competition profiling	–	0.8 µM	relative to: vehicle	relative abundance	1.06

Compound	tested on	test	system	conditions	scale	endpoint	value
CO[C@H]1C[C@@H]2CC[C@@H](C)[C@@](O)(O2)C(=O)C(=O)N2CCCC[C@H]2C(=O)O[C@H]([C@H](C)C[C@@H]2CC[C@@H](OC(=O)NCCOCCOCCOCCOCCOCCOCCOCCOCCC(=O)N3CCc4cc(Cn5nc(-c6ccc7oc(N)nc7c6)c6c(N)ncnc65)ccc4C3)[C@H](OC)C2)C[C@@H](O)[C@H](C)/C=C(\C)[C@@H](O)[C@@H](OC)C(=O)[C@H](C)C[C@H](C)/C=C/C=C/C=C/1C	–	phase 1 dose escalation, measured: vomiting	advanced solid tumour patients	intravenous, 12 mg weekly, grade ≥3	–	TRAE incidence	8.3%
Cc1cc(C)c(CNC(=O)c2cc(Cl)c3c(c2C)O[C@@](C)([C@H]2CC[C@H](N(C)C)CC2)O3)c(=O)[nH]1	–	–	relapsed/refractory NHL patients	dose not given, trial, safety set, treatment-related TEAE grade 5	–	incidence of pleural effusion	0%
CCN(CC)CCNC(=O)c1[nH]c2ccccc2c1Sc1ccc(Cl)cc1	Vero-E6	CellTiter-Glo ATP	–	72 h, retest 8-point duplicates	relative to: DMSO 0%, hyamine -100%, more negative, more toxic	maximum response	-6.95%
CN1CC[C@@H](c2c(O)cc(O)c3c(=O)cc(-c4ccc(C(F)(F)F)cc4Cl)oc23)[C@@H]1CO	–	measured: Thrombocytopenia	relapsed B-cell malignancies or AML	oral, 50 mg, grade 3-4, continuous dosing	–	patients with adverse event	0%
C[C@@H](NC(=O)N1C(=O)[C@H](Cc2ccnc(N)c2)[C@H]1C(=O)O)C1CCCCC1	–	–	healthy adult Chinese volunteers	continuous intravenous infusion, 0.3 mg/kg/h, 5-day infusion, CTCAE 5.0 grading	–	incidence of mild AEs	50%
O=C(O)CCCOc1ccc(F)cc1-c1cc(-c2ccccc2C(F)(F)F)n(-c2ccccc2)n1	–	–	female Crl:CD(SD) rats, liver	intravenous, 25 µg/kg, 1 d	–	organ weight	5.89 ± 0.5 g
COc1ccc([C@@H]2CC(=O)c3c(O)cc(O)cc3O2)cc1O	–	–	male Sprague-Dawley rat, lean	oral, 100 mg/kg of neohesperidin, 0 to 12 h	–	faecal excreted amount	1150 ± 904 ng
c1csc(CNc2cc[nH]n2)c1	–	micronucleus	CD-1 mouse Hsd:ICR(CD-1), male, bone marrow	oral, 125 mg/kg/day, 3 days	–	micronucleated PCE per 1000 PCE	1.1
C[C@]1(CO)Cc2ncn(-c3ccc(C#N)c(Cl)c3)c2C(=O)O1	–	–	human, Chinese, plasma	60 mg single dose, geometric mean	–	half-life	5.3 h
CCCC(CCC)NC(=O)c1ccc2c(c1)OCO2	–	–	Swiss albino CD-1 mice, male, bone marrow	intraperitoneal, 350 mg/kg, 48 h	–	micronucleated PCEs	0.1%
O=S(=O)(Nc1ccccc1)c1ccc(NC(=S)Nc2ccccc2)cc1	–	measured: Ca	female mouse, blood	oral, 5 mg/kg daily, 14 days	–	blood chemistry level	10.5 mg/dL
COc1cccc(Oc2ccccc2NC(=O)CNC(=O)c2cccc3ccccc23)c1	–	–	esterase-deficient SCID mice, male, blood	oral, 40 mg/kg/day, 14 days, toxicity study	–	mean corpuscular hemoglobin	15.1 pg and 14.8 pg
Clc1nc[n]([Au][PH](c2ccccc2)(c2ccccc2)c2ccccc2)c1Cl	–	–	NCG mice	intraperitoneal, 3 mg/kg single dose, 24 h	–	body weight	23.2 g and 22.8 g
Cn1c(-c2ccc(C(N)=O)cc2F)nnc1C(C)(C)Oc1c(F)cc(Cl)cc1F	–	–	human	oral, 30 mg, single ascending dose	–	subjects with any TEAE	33.3%
O=C(Nc1ccccc1)C1CCN(C(=O)Oc2cccnc2)CC1	–	–	healthy women	oral, 60 mg, 7 days	–	Psychiatric disorders adverse events	7.1%
N#C/N=C1\SCCN1Cc1ccc(Cl)nc1	–	–	soil	28 days, nominal 0.12	–	recovery	0%
N[C@@H]1c2ccccc2OC12CCN(c1cnc3c(N4CCCc5ncccc54)n[nH]c3n1)CC2	–	–	advanced metastatic solid tumour patients	oral, 50 mg once daily	–	TEAE leading to withdrawal	33.3%
O=[N+]([O-])c1ccc2c(c1)S(=O)(=O)C=C2	–	–	male C57BL/6 mice, blood	intraperitoneal, 10 mg/kg, day 8, group average	–	mean corpuscular haemoglobin	15.2 pg
N=c1c2c(-c3ccccc3)c(-c3ccccc3)n(Cc3ccccc3)c2ncn1[C@H]1CC[C@H](O)CC1	–	–	Beagle dogs, male, plasma	dose not given	–	AUC(0-t)/AUC(0-inf)	< 60%
CC(=O)c1c(C)c2cnc(Nc3ccc(C4CCN(CCS(C)(=O)=O)CC4)cn3)nc2n(C2CCCC2)c1=O	–	–	HR+/HER2- advanced breast cancer patients	oral, 150 mg	–	patients with any TEAE	100%

For quick reference, copied from above:
Compound	tested on	test	system	conditions	scale	endpoint	value
C[C@@H](NC(=O)N1C(=O)[C@H](Cc2ccnc(N)c2)[C@H]1C(=O)O)C1CCCCC1	–	–	healthy adult Chinese volunteers	continuous intravenous infusion, 0.3 mg/kg/h, 5-day infusion, CTCAE 5.0 grading	–	incidence of mild AEs	50%
c1csc(CNc2cc[nH]n2)c1	–	micronucleus	CD-1 mouse Hsd:ICR(CD-1), male, bone marrow	oral, 125 mg/kg/day, 3 days	–	micronucleated PCE per 1000 PCE	1.1
COc1ccc([C@@H](O)c2cc(-c3ncnc4cc(N5CCOCC5)ccc34)c(F)cc2Cl)nn1	–	–	patients, advanced solid tumours	oral, 200 mg twice daily, treatment-emergent, with: avelumab	–	stomatitis incidence	10%
